Measured values from different studies.
Every numbered part comes from another study and shows a few of its results, in no order.

Block 1 — method: Sort-seq; refers to: YFP reporter; medium: E. coli; setting: PhoQ-PhoP variant library; with: 10 µM Mg2+; baseline: high Mg2+ state; reading: higher = stronger signaling; quantity: fold induction
Substance: PhoQ, residues 284 288 289 292 302 303 NSMLDC
PhoP, residues 12 14 15 18 19 HHYTI (Escherichia coli, UniProt P23836): 1.46
PhoP, residues 12 14 15 18 19 AYFRS (Escherichia coli, UniProt P23836): 28.5
PhoP, residues 12 14 15 18 19 SFCSL (Escherichia coli, UniProt P23836): 12.3

Block 2 — method: RNA Bind-n-Seq; form: RNA; medium: in vitro; concentration: 365 nM; baseline: no-protein control; reading: higher = stronger binding; quantity: RBNS enrichment (R)
Target: RNA binding protein fox-1 homolog 2, RRM domain, GST-SBP tag (RBFOX2, Homo sapiens, UniProt O43251-10, residues 100-194)
Setting: natural RNA segment, single round, ends assumed
Shared flanks, not repeated: GGGAGUUCUACAGUCCGACGAUC … UGGAAUUCUCGGGUGCCAA
Residues (chain): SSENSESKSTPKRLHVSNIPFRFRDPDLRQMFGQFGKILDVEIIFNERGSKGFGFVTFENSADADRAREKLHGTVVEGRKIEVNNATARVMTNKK
CCCGAGAGCUAAAGCCGAUGGUCAGGAAAAGUGACCUGUCUCUGCAGAUUGGAAGAAUGGACUCUAAGGAGGCUGUUUGCACAAGGCUCUCCACUCACCAGCUGUUGAGU: 0.452
UGUGUUUUUCUUUUGGCUAAACUUCUUUUGGAAGUUGGUAAGUUCAGCCAAGGUUUUACAGGCCCUGAUGUCUGUUCUUCUAAAUGGUUUAAGUAAUUGGGACUCUAGCA: 7.18
AAAAAAAAACCCAAGAAGGAGUAUUUUGUGUUUAGUCUUUGAUGAGUUUUCUGUAAUUCUCCCCCUCUUUAAAAACAUCACUGAAAUUUCAAUAAAUUUUUAUUGAAAUG: 0.838
CACACAUCUUGCAUGGAUGGCAGCAUUGUUCUGAAGGGGUUUGCAGAAAAAAAAGAUUUUCUUUACAUAAAGUGAAUCAAAUUUGACAUUAUUUUAGAUCCCAGAGAAAU: 1.29
AUUUAUUUCAGAGCGGAGAAACUUAAGCUAAAGUCUGUUAUACAGAAUUGAAAGCCUUCGUAUCUUGAACCUCCCAACAUUUUUCUUAUGGCUGUUGAAAAGUAUAGAGC: 0.707
GUAACAGGACUUGGUAGUUUCCACCUAGGAAAACCGAGCUCUCUGGUGUGGUUCGCAGUACUGAGGGCAGGGCUGGUGCCUUGCUGCUCUGUUCCAAACAGGCCAGUGGA: 0.319
AGCGGGCCCUGGGGCGAGGCCAUCUCUGCCUGCCUCCCUAGCAGGCGCCAGCGGUGGAGGCUGAGUCGCAGGACACAUGCCGGCCAGUUAAUUCAUUCUCAGCCAAUGAA: 0.275
AAAAAAAAUAGUUUUUUUAGAGUAGAGUUAUUUUCUGGGAGAGUUACUACAAAUGCUUAUUCUCAUUGACUUAUUUCUUUCAUGGUAACUUUCGUUUUGGAGUGUUCAUU: 0.649

Block 3 — method: RNA Bind-n-Seq; form: RNA; medium: in vitro; concentration: 20 nM; setting: 6-mer, flanks averaged, single round; with: 150 mM LiCl; baseline: input library; reading: higher = stronger binding; quantity: 6-mer enrichment (R)
Target: TAR DNA-binding protein 43, full length, His tag (TARDBP, Homo sapiens, UniProt Q13148, residues 1-414)
GCCAUA: 0.908
GUGUAC: 1.08
GUUCUC: 0.892
UAGUGC: 1.01
CAGAUC: 0.821
UGUGAC: 1.06

Block 4 — method: universal PBM; form: double-stranded DNA, one strand shown; medium: in vitro; concentration: not given; reading: higher = stronger binding; quantity: E-score
Target: Sal-like protein 4, full length isoform B (SALL4, Homo sapiens, UniProt Q9UJQ4-2, residues 1-616)
Setting: 8-mer, flanks averaged, mean of replicates
Construct (chain): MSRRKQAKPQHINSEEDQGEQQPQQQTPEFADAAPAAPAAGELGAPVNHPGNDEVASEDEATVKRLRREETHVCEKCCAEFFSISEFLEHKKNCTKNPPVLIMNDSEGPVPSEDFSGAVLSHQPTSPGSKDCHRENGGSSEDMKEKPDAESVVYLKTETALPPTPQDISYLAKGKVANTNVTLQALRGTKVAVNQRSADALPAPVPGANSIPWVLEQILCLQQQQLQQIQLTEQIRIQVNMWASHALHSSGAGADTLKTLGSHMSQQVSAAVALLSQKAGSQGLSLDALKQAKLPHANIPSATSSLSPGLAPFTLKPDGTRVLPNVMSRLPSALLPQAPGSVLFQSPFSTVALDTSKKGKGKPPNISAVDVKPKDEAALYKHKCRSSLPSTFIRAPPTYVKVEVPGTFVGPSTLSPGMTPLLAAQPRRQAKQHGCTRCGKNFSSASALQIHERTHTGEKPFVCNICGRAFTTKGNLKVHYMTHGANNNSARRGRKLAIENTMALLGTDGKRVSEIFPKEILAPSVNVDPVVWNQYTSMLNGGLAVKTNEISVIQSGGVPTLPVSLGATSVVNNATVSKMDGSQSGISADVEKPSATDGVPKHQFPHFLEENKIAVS
TCGATGAA: 0.105
AGTCCACT: -0.0808
ACGGTATG: 0.0397
GCACAAAC: -0.0319
GTCTGCAA: -0.157

Some of these lines once more (block 2):
AUUUAUUUCAGAGCGGAGAAACUUAAGCUAAAGUCUGUUAUACAGAAUUGAAAGCCUUCGUAUCUUGAACCUCCCAACAUUUUUCUUAUGGCUGUUGAAAAGUAUAGAGC: 0.707
